Assay results pooled from the literature.
Parts stem from different laboratories: compare values within a part only.

Series 1 — technique: aptamer microarray, sandwich; molecule type: DNA with 2'F-ANA; matrix: in vitro; concentration: 200 nM; added: Cy3 exosite-II aptamer, 400 nM; direction: higher = stronger binding
Target: Prothrombin, mature alpha-thrombin (F2, Homo sapiens, UniProt P00734)
Notes: whole 15-mer aptamer, many near background
For `GGTTGGTGTGGTTGG (2'F-ANA at 2 3 4 8 10 12 15)`, “mean fluorescence intensity” read 302 a.u.
For `GGTTGGTGTGGTTGG (2'F-ANA at 2 3 5 6 7 8 13 15)`, “mean fluorescence intensity” read 80.3 a.u.
Under “mean fluorescence intensity”, `GGTTGGTGTGGTTGG (2'F-ANA at 2 3 6 9 11 12)` is recorded as 876 a.u.

Series 2 — technique: protein binding microarray; molecule type: double-stranded DNA, one strand shown; matrix: in vitro; concentration: not given; baseline: not given; direction: higher = stronger binding
Target: Histone acetyltransferase KAT6A, winged helix 2, GST fusion (KAT6A, Homo sapiens, UniProt Q92794, residues 85-181)
Notes: 8-mer, flanks averaged, mean of 2 arrays, mostly near background
Residues (chain): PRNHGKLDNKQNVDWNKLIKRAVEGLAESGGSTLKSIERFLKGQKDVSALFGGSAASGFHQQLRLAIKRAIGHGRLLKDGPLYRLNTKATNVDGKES
The E-score of `AGCAAATG` is reported as 0.0316.
`CCGCGACA` has an E-score of 0.0688.
With `ATCATAAA` the E-score was -0.0109.

Series 3 — technique: protein-binding microarray; molecule type: double-stranded DNA, one strand shown; matrix: in vitro; concentration: 2540 nM top; notes: 60-bp whole probe; added: salmon DNA 0.4 mg/ml; baseline: random background probes; direction: higher = stronger binding
Target: Interferon regulatory factor 3, full length, phosphomimetic (IRF3, Homo sapiens, UniProt Q14653, residues 1-427, S386D/S396D/S398D/S402D/T404D/S405D)
Sequence of UniProt Q14653 (whole entry, unmodified, looked up): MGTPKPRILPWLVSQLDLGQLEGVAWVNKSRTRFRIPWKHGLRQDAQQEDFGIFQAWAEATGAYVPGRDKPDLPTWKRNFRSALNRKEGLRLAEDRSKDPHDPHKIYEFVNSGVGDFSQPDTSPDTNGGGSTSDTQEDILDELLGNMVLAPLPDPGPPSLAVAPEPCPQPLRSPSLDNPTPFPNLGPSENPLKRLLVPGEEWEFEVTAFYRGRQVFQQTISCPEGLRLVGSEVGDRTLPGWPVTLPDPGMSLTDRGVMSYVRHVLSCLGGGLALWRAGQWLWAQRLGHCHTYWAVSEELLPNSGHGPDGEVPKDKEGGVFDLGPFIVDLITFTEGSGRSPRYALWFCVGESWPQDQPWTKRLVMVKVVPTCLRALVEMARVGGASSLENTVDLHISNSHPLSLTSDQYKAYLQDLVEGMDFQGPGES
For `GCCTAGCACTTAGGTCTCGGATTGGGTTAGTGCTAGGTCTTGATTCGCTTGACGCTGCTG`, “fitted relative affinity” read 0.341 z-score.
Under “fitted relative affinity”, `GCCTAGCACTCATCTTTATGTACTCTCACTGTGCTAGTCTTGATTCGCTTGACGCTGCTG` is recorded as 0.94 z-score.
`GCCTAGCACAAGTGTATATACTATATGCATGTGCTAGTCTTGATTCGCTTGACGCTGCTG`: “fitted relative affinity” 0.0229 z-score.

Further values, each from its own experiment
The fold induction of `PhoQ, residues 284 288 289 292 302 303 WVSSAF` is reported as 5.27 (PhoP, residues 12 14 15 18 19 GQAIL (Escherichia coli, UniProt P23836); Sort-seq, item: YFP reporter; E. coli; PhoQ-PhoP variant library, added: 10 µM Mg2+; baseline: high Mg2+ state, higher = stronger signaling).

Repeated from above (series 3):
For `GCCTAGCACTTAGGTCTCGGATTGGGTTAGTGCTAGGTCTTGATTCGCTTGACGCTGCTG`, “fitted relative affinity” read 0.341 z-score.
